Assay results gathered from unrelated publications.
Numbered parts are unrelated; each lists some results of a single study. Substitutions count along the parent as printed.

Series 1
Target: ABI1, truncated, D143A, DHFR fusion (Arabidopsis thaliana)
Method: DHFR PCA, deep sequencing
Matrix: yeast
Setting: methotrexate growth selection, single substitutions
Together with: (+)-ABA 4.8 µM
Reference: wild-type fitted maximum
Direction: higher = stronger binding
Starting sequence: PYL1, truncated, DHFR fusion (Arabidopsis thaliana); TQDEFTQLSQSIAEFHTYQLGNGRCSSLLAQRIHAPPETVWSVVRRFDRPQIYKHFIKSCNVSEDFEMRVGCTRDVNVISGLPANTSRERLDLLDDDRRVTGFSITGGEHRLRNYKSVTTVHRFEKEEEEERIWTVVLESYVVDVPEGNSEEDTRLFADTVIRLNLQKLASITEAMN; partner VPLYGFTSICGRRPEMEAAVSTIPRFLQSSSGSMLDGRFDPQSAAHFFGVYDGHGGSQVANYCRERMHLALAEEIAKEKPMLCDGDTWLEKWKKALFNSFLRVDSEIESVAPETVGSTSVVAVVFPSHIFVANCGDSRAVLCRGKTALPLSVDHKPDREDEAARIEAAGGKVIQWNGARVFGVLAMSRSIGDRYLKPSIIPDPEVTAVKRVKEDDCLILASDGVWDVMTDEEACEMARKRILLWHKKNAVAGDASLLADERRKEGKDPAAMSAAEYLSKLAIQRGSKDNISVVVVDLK
Variant | relative binding score [%]
D65C | 56.3
K54S | -2.67
C25E | 9.15
I33M | 45.5
S171K | 91.8
R123Q | 81.4
K58V | 18.3
I79W | 60.5
E130Y | 52.4

Series 2
Target: Ras GTPase-activating protein-binding protein 1, full length (G3BP1, Homo sapiens, UniProt Q13283)
UniProt Q13283, sequence (whole entry, looked up): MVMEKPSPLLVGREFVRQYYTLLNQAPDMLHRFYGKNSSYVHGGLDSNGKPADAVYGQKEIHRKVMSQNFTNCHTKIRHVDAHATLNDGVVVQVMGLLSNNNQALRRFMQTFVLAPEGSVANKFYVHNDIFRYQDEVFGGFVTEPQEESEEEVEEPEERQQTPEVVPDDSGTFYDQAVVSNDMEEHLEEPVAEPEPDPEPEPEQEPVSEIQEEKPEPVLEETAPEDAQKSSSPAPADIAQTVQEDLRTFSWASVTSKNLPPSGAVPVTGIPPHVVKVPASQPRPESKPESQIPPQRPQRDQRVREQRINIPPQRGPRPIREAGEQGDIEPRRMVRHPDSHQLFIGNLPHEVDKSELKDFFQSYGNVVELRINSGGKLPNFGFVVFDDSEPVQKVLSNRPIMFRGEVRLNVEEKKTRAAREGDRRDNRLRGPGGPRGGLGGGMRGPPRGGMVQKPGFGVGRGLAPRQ
Method: RNA Bind-n-Seq
Form: RNA
Matrix: in vitro
Concentration: 200 nM
Setting: whole 134-nt RNA, ends assumed
Together with: 150 mM KCl
Reference: input library
Direction: higher = stronger binding
Strand | log2 enrichment
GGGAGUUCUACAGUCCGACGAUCUGGCCCUGGUCGCAUGCGGGGAGGAAGAGGUGGCCUCAUGGAUCGUGGUGGUCCCGGUGGAAUGUUCAGAGGUGGCCGUGGUGGAGACAGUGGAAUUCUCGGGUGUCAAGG | 0.133
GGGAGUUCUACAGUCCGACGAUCCAAGUCCUGUGCUACACAUCGUAUGUACCGAAUCGGGAGGGUUUUUUUGGGUGGGAAAGUAUUAUGUUACGCCGUUCGGAUCUGCACUUCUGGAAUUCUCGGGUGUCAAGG | 0.371
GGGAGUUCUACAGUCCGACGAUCAAGUCCUGUGCUACACAUCGUAUGUACCGAAUCGGUUUUGGUUUUGGGGUUUUGGGGAAAGUAUUAUGUUACGCCGUUCGGAUCUGCACUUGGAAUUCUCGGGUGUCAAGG | -0.732
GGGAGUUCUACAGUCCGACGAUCCUCAAGUCCUGUGCUACACAUCGUAUGUACCGAAUCGGCCCGGGCCCGGCCCGGAAAGUAUUAUGUUACGCCGUUCGGAUCUGCACUUCCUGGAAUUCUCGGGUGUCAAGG | -0.456
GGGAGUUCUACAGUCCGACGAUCUCCUCAAGUCCUGUGCUACACAUCGUAUGUACCGAAUCGGGCGGGGCGGCGGAAAGUAUUAUGUUACGCCGUUCGGAUCUGCACUUCCAGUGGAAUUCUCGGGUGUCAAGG | -0.119
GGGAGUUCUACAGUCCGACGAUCCACAGACAACACGCACCCACACAGACACAGAGGGAAGGGGUUGGGAUGGGGACAGGGUGCACAGCAGGGCGGGAAAGGACCCCAGCCCCUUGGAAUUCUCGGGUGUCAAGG | 1.99
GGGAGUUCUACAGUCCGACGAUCGUCCUGUGCUACACAUCGUAUGUACCGAAUCGGCCCCCCGGCCCCCCGGCCCCCCGGGAAAGUAUUAUGUUACGCCGUUCGGAUCUGCACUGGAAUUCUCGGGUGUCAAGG | 0.164
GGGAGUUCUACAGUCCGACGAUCAAGUCCUGUGCUACACAUCGUAUGUACCGAAUCGGGGUUUGGGGUUUGGGUUUGGGAAAGUAUUAUGUUACGCCGUUCGGAUCUGCACUUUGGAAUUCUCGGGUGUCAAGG | 0.267
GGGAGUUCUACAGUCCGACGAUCUGUGCUACACAUCGUAUGUACCGAAUCGGGGAAAAAAAGGGGAAAAAAAGGGGAAAAAGGGGAAAGUAUUAUGUUACGCCGUUCGGAUCUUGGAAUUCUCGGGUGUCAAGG | -0.415
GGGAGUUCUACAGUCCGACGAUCUGGGAGGUGGAUUUUGUUUAUUUUUUUAGCUCAUUUCCAGGGGUGGGAAUUUUUUUUUAAUAUGUGUCAUAAAUAAAGUUGUUUUUGAAAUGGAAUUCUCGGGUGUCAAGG | 0.151

Series 3
Target: RING finger protein unkempt homolog, zinc fingers 1-6, GST-SBP tag (UNK, Homo sapiens, UniProt Q9C0B0, residues 30-357)
UniProt Q9C0B0, sequence (30-357, looked up): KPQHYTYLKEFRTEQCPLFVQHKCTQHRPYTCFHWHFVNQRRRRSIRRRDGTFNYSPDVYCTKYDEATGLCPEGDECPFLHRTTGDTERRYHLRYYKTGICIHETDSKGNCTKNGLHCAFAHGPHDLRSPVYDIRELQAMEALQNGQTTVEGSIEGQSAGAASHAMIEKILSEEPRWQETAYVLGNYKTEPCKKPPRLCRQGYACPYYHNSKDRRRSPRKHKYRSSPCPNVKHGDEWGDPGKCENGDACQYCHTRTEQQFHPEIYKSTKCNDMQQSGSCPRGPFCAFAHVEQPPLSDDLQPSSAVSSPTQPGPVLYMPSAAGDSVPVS
Method: RNA Bind-n-Seq
Form: RNA
Matrix: in vitro
Concentration: not given
Setting: RNA with constant flanks, human-mouse chimeric sites, ends assumed
Reference: input RNA pool
Direction: higher = stronger binding
Strand | bound/input enrichment
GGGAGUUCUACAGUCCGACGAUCCACGUGUCUGCAGUACUUGAUGUGGACUACUCUCCCACUGGGAAGGAAUUUGUGUCUGCCAGCUUUGAUAAGUCUAUUCGAAUCUUUCCUGUGGACAAGAGCCGAAGCAGGGAGGUAUAUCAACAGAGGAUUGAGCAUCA | 0.266 ratio
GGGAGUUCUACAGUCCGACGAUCUGGGCACUCUAUCAGAUAUAUUAAUUUUUUAAUGUAGAUGUAAUUUUAAAAAUGAAUGGCUACUUUACACGUUUAACUAGGGUUUUACUAUAUAUGUGUACAUAUGUAUAUGUAUUUAUACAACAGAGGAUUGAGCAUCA | 18.8 ratio
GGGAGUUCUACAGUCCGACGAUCAGUGUGCAGGAAUUCAUGACCUUUACAAGUCAACUGAUUGUGGAGCGCUCGGGGAAAGGCAGCAGAGCUUCUGUCAAAGAACAAGAGUAUCUUUGCCAUGUCUACGUCCGGAAUGAUAGUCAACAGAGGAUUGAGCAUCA | 0.178 ratio
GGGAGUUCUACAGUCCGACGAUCUAAGUCCUGUGCCAGCACUUCGCUCAUAAAGUUUUAAAUUCUGGACCAAUAGUGUUUGUUUCCUGAUUUUUGUAUUCAAUACUUUGCCUAGUAUGUAACUCACUCUUCUGGAUAAAUAAACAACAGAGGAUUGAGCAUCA | 1.37 ratio
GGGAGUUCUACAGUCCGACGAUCGGACAUCUGUCAAAUUGUAUUUCCCGUGUGAAACAAGUGAACACUCUGAUACACUUCAUCUGCUUGUACAUCUGUAUGAUAGAGAAAUGUAAAUAUGUUAAUCCAAGCAAUGUGUCACUUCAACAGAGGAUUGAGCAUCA | 0.271 ratio
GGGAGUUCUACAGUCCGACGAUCCGGAGCCCCUCCCUCUCACAGGCCCAAGAUAUAACCCACCAGUGCCUUCUGUCUGCUUGUCAGCUCUGUCAAUCACGCCUGUCCUCUCACGCCCACACCAAGUGCCCAAAGUGGGGAGGGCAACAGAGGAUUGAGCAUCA | 0.429 ratio
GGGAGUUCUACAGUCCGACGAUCUUACCCGAGAACGAGGAUGAAUUGGAGAGCACCAACAGGCGCUACACCAAGAGGGACUGCAGCACUUUCCUCAGAACUAGUGAGACGGGCAUCGUGGACCAGGUCAUGGUCACUCUCAACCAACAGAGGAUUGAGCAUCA | 0.171 ratio
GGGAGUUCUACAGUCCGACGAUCUUCAAAGAAAAGGGCAGCUGUGUCAUUUCAUAAGUAACUCUGGGGGAGGGAAAUUCUAACUAGUUUGUUAAUUUUCCCCCAAAUGAAGCCAAAGUGUUUUUUAAGGAACUGAGAAAAAAUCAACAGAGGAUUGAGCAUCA | 0.302 ratio
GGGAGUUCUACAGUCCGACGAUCUUACCCGAGAACGAGGAUGAGCUGGAGAGCACCAACAGGCGCUACACCAAGAGGGACUGCAGCACUUUCCUCAGAACUAGCGAGACGGGCAUCGUGGACCAGGUCAUGGUAACUCUCAACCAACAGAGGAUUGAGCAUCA | 0.11 ratio
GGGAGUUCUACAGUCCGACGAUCUCCCAAAUCCAGCAGCUAGAAGGAGCCUUGAGACAAACACUCCACACACAGGGAAGGCGAUAACAUUGUACAUUGGUUUACAUUUUUCUCCUUGAAUUUUUCUAGGGGAGGUCAUAGUGCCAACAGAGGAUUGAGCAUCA | 0.7 ratio

Further values, each from its own experiment
Molecule | target | test | test system | setting | scale | endpoint | result
PhoQ, residues 284 288 289 292 302 303 SSCCRF | PhoP, residues 12 14 15 18 19 LYFRQ (Escherichia coli, UniProt P23836) | Sort-seq, refers to: YFP reporter | E. coli | PhoQ-PhoP variant library, together with: 10 µM Mg2+ | reference: high Mg2+ state, higher = stronger signaling | fold induction | 9.1

For quick reference, copied from above (series 3):
Strand | bound/input enrichment
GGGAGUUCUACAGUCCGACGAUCUUACCCGAGAACGAGGAUGAAUUGGAGAGCACCAACAGGCGCUACACCAAGAGGGACUGCAGCACUUUCCUCAGAACUAGUGAGACGGGCAUCGUGGACCAGGUCAUGGUCACUCUCAACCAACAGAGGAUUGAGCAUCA | 0.171 ratio
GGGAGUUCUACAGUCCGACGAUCUUCAAAGAAAAGGGCAGCUGUGUCAUUUCAUAAGUAACUCUGGGGGAGGGAAAUUCUAACUAGUUUGUUAAUUUUCCCCCAAAUGAAGCCAAAGUGUUUUUUAAGGAACUGAGAAAAAAUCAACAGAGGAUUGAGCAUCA | 0.302 ratio
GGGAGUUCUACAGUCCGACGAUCUUACCCGAGAACGAGGAUGAGCUGGAGAGCACCAACAGGCGCUACACCAAGAGGGACUGCAGCACUUUCCUCAGAACUAGCGAGACGGGCAUCGUGGACCAGGUCAUGGUAACUCUCAACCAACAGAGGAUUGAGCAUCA | 0.11 ratio
